Results of several laboratories.
Each numbered part is a random draw from the data of one study; scales do not carry over between parts.

Set 1
Target: Histone acetyltransferase KAT6A, winged helix 1, GST fusion (KAT6A, Homo sapiens, UniProt Q92794, residues 1-85)
Method: protein binding microarray
Form: double-stranded DNA, one strand shown
Medium: in vitro
Concentration: not given
Setting: 8-mer, flanks averaged, mean of 2 arrays, mostly near background
Reference: not given
Direction: higher = stronger binding
Measurement: E-score
Construct (chain): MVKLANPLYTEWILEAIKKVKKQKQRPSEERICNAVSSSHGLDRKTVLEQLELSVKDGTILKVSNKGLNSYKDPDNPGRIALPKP
CTTTTGCA: -0.112
CCCGCCGC: 0.46
GGATTGCC: 0.058
AAGAGTTG: -0.12
CGTGCAGA: -0.0155
ATAAATTA: -0.0599
ATAGGCGG: 0.321
CGCTTCTC: 0.277
ACACGCAG: 0.00479
GCGTAGCC: 0.133
GGGTTCGA: -0.0834
AGTGTCCG: 0.14
CCCTGCTA: -0.105
CGTTACTC: -0.0362
AAATATTC: -0.227
AGAATGCA: -0.169
ATCGTAGG: -0.0127
TGTCGCAA: 0.00684
CAATAAAA: -0.282
CGCGGCCA: 0.378
ACCAGTGA: -0.171
ACTCTTCC: -0.0544

Set 2
Target: RING finger protein unkempt homolog, zinc fingers 1-6, GST-SBP tag (UNK, Homo sapiens, UniProt Q9C0B0, residues 30-357)
Method: RNA Bind-n-Seq
Form: RNA
Medium: in vitro
Concentration: not given
Setting: RNA with constant flanks, human-mouse chimeric sites, ends assumed
Reference: input RNA pool
Direction: higher = stronger binding
Measurement: bound/input enrichment
Residues (chain): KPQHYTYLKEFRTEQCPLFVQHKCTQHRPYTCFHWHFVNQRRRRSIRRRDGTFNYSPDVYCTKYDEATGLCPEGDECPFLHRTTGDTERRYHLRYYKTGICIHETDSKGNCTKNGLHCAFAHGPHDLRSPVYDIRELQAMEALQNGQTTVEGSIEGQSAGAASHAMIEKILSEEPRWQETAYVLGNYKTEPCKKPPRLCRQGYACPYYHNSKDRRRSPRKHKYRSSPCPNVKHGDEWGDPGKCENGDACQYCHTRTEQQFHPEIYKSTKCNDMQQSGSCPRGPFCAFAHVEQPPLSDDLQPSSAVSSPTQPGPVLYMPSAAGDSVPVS
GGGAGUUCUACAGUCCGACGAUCGUAGCUGGGACUACAGAAAUGCUGGUAAUUUCAGUCACUUGCUGAUGACUUCUGAUGUCCCAGCAAAUGUUGGCAUUGUUGACUGCUCUGUGAAGACUUCUGAGGACCCACGUCUAAGGUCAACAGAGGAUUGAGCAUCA: 0.0797 ratio
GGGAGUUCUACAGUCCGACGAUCGUACUGCAACAGCAGGGCAAGCUGCAGGAAGCUCUGAUGCAUUAUAAGGAGGCUAUUCGAAUCAGUCCUACCUUUGCUGAUGCCUACUCUAAUAUGGGAAACACUCUAAAGGAGAUGCAGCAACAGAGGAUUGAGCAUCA: 0.174 ratio
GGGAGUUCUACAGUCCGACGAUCUCUUAACUUAUUCAUUUCUUAUUUUUAUAUAGCUAGAUAAAUAUUGUUAGUCUUAGACAAUAGCUCACAUUUUUUGAGAAGCAUGCCCUCCCUGUCCAUUUGUCUUACAAUAACACUCAGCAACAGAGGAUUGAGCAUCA: 92.2 ratio
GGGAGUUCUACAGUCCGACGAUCAGAGCCCAGGACGUUGAUGCUACAAAUCCAAAUUACGAAAUUAUGUGUAUGAUCAGAGACUUCAGAGGGAGCUUGGAUUACAGACCCUUAACAACAGCAGAUCCUAUUGAUGAACAUAGGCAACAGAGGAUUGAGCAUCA: 0.374 ratio
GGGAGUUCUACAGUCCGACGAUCAGAGAUAAGACAUCCAGGAACAUGCGAGGCUCCCGGAUGAAUGGGUUGCCUAGCCCCACUCACAGCGCCCACUGUAGCUUCUACAGAACCAGAACCUUGCAGGCACUAAGUAAUGAGAAGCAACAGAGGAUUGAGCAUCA: 0.156 ratio
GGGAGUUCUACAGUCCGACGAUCCUGAAAAACACAGAUAUCAAAGUUGUUGACUUUGGAAGUGCAACGUAUGAUGAUGAACAUCACAGUACUUUGGUGUCCACAAGGCACUACAGAGCUCCCGAGGUCAUUUUGGCUUUAGGUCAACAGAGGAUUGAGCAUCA: 0.282 ratio
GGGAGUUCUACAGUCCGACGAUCCACAGAGCAGCACCUACCCCCUCCUCCUUUCCACACCUGCAAACUCUUUUACUUGGGCUGCAUAGUUAGUGUAAUUACAUCUCAGCUUUGAGGGCUCCUGUGGCAAAUUCCCGGAUUAAACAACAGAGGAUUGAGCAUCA: 3.05 ratio
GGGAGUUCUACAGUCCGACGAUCCUGAAAAACACAGAUAUCAAAGUUGUUGACUUUGGAAGUGCAACAUAUGAUGAUGAACAUCAUAGUACUUUGGUGUCUACCCGGCACUACAGAGCUCCCGAGGUCAUUUUGGCUUUAGGUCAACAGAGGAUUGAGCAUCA: 0.406 ratio
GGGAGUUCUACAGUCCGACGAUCCUGAGGAAUACCACUGAGAGACCUUAAAAGAAUCAUUUGAGGGCUCUGUUCGUGCAAGAAUAGUCACUGAUCGGGAAACUGGUUCUUCCAAAGGGUUUGGUUUUGUAAGACUUCAACGUGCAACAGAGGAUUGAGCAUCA: 0.331 ratio
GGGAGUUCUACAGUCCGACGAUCGGGACUGAUUCAUUCCAAGGACAGGCCGCCCAGUCUGAUGCCUGGACUGAUGACAGUAUGGAAGGGCCUAGUCAAAAUGUUGAAGCUGAGUCAAUUCAGGAUGCCAUGAGUAUGGAAGAGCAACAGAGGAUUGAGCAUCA: 0.302 ratio
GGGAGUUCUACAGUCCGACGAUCAAUGUGGAGUUGAGUUCCUUGGCCCGGCUUCCCAGCUUAAAUAAACUCCGGAAGUUGGAACUUAGUGACAAUAUAAUUUCUGGAGGCUUGGAAGUCCUGGCAGAGAAAUGUCCAAAUCUUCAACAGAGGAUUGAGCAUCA: 0.18 ratio

Set 3
Target: RNA binding protein fox-1 homolog 2, RRM domain, GST-SBP tag (RBFOX2, Homo sapiens, UniProt O43251-10, residues 100-194)
Method: RNA Bind-n-Seq
Form: RNA
Medium: in vitro
Concentration: 365 nM
Setting: natural RNA segment, single round, ends assumed
Reference: no-protein control
Direction: higher = stronger binding
Measurement: RBNS enrichment (R)
Target sequence (chain): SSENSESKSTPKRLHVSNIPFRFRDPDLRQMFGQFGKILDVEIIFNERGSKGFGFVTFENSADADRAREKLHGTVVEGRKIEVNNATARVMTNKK
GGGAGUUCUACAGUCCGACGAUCGAGCCACGCCCAAGGCGAGACUUCCAGCCCCAACACCCACUUUGGAAGCCCUGUGGCCACAUGUAUGUCAGUAAGGGUUGUACAAAAUAAAUUCUAUUUAUCGCUAUUGUUGGAAUUCUCGGGUGCCAA: 0.344
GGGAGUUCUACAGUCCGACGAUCCCGUAAAUGGCAUUUUACAUGACUGCAAGUAUUGUUAUACCGAAUCCUAUUUUAAAAGAGUUUUAGUAACGGUGAGCUGAGAAAUUCUGGUCAUGGUGAGCAGCAGGCGCUGGAAUUCUCGGGUGCCAA: 0.585
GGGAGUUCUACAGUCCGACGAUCUGUUUAGAUCCUACAGAUGACCUCUGCUACAAUAAGUACGAUGUGACUUAGUAACUGCAUAGCAGUUGGAAAGAACUGCCAACUUUUUUUUCUCAUUUUUGUUAGUAAGAUGGAAUUCUCGGGUGCCAA: 0.689
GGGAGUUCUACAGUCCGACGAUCUCAAGAGGAAUCUGUUUCUCUGCUGUCAACUUCCCAUCUGGCUCAGCAUAGGGUCACUUUGCCAUUAUGCAAAUGGAGAUAAAAGCAAUUCUGACUGUCCAGGAGCUAAUUGGAAUUCUCGGGUGCCAA: 0.229
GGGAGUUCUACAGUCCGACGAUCAGAAUAUGUGUCUUCACCUGAAUAUUUAAUCUUUAUAUUUACAAAAAAAUAAGUUCCACAAGAUGGACAAAAAUGGUCCAUGAUAUUUAGCUUAAAUUGUAACCUUUUGUUGGAAUUCUCGGGUGCCAA: 0.999
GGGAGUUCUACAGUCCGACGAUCCAGAUGUAUGAACAUCCUUGGAGUGCCCACCCAGCACCCAGUGUUGAGUAUUAACCUUACAUUUUACCCGACUUAAGGAGGAAUAGUAGUGUAAGAGCUGCCCGGCUCCCUGGAAUUCUCGGGUGCCAA: 0.217
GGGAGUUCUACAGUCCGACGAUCAUUUUCCAAGUAUUUCUCUUGAAACUGCCAGUGCCUGAACUGUUGGGGCCAGGAUUUUCCCUGGUCAGAUGCCAAGUAACAUGUGGUUUUCUGCCAUACUUUUCUCCAUUUGGAAUUCUCGGGUGCCAA: 0.248
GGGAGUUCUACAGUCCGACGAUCGAAGAAAGGCCUUGUAAGUGACAAGACAGUCCCCUGGGAAGAAAGAGAAAGGAAAUGGGCUAUUGCCAAAGGACAGGUGGCGUUAGAUGGCUGUGAGGGUGACCUGGUGAUGGAAUUCUCGGGUGCCAA: 1.33
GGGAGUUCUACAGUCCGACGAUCGAAGGGCAGUAGAGGCGCAAGCUGGGUCCUGCUGGCCGGGGUAGCUCAGCUGUGACUUUGGACUCUGGAGUGGAUGUCCUCAUGUUAGCAAACGUCCACUGUCCUUUCUCUGGAAUUCUCGGGUGCCAA: 0.287

Set 4
Target: Prothrombin, mature alpha-thrombin (F2, Homo sapiens, UniProt P00734)
Method: aptamer microarray, sandwich
Form: DNA with 2'F-ANA
Medium: in vitro
Concentration: 200 nM
Setting: whole 15-mer aptamer, many near background
With: Cy3 exosite-II aptamer, 400 nM
Direction: higher = stronger binding
Measurement: mean fluorescence intensity
Strand: GGTTGGTGTGGTTGG
2'F-ANA at 2 3 5 9 10 12 13 14 15: 48.2 a.u.
2'F-ANA at 3 4 5 8 13 14: 50.2 a.u.
2'F-ANA at 2 5 7 8 9 10 13 14: 47.3 a.u.
2'F-ANA at 3 9 10 12 14: 480 a.u.
2'F-ANA at 2 3 4 7 8 11 12 15: 759 a.u.
2'F-ANA at 1 2 4 5 6 7 8 9 12 13 14: 48 a.u.
2'F-ANA at 1 3 4 5 6 10 12 13 14: 47.2 a.u.
2'F-ANA at 1 2 3 5 7 11 12 14: 49.7 a.u.
2'F-ANA at 1 2 5 6 7 11 12 13 14 15: 51.3 a.u.
2'F-ANA at 1 2 3 4 6 8 10 13: 54.3 a.u.
2'F-ANA at 3 4 7 8 11 12 13 15: 831 a.u.
2'F-ANA at 1 2 6 8 10 13 14 15: 48.9 a.u.
2'F-ANA at 1 3 5 8 9 12 13 15: 92.9 a.u.
2'F-ANA at 2 3 4 7 10 11 13 15: 218 a.u.
2'F-ANA at 1 3 8 10 11 12 13 14: 61 a.u.
2'F-ANA at 1 3 7 9 11 12 14: 102 a.u.
2'F-ANA at 2 5 7 8 9 10 11 14: 66.5 a.u.
2'F-ANA at 2 3 4 6 8 10 11 12 13 14: 136 a.u.
2'F-ANA at 1 2 3 4 5 6 8 10 11 12 14: 60.1 a.u.
2'F-ANA at 2 4 6 7 8 12 15: 586 a.u.
2'F-ANA at 1 2 5 8 9: 85.4 a.u.
2'F-ANA at 3 4 7 9 10 12 15: 316 a.u.
2'F-ANA at 1 2 4 5 6 12 14: 50.3 a.u.
2'F-ANA at 3 4 5 8 10 12 13 15: 53.5 a.u.
2'F-ANA at 1 3 11 12 15: 476 a.u.

A few entries again (set 1):
AAGAGTTG: -0.12
ACACGCAG: 0.00479
CCCTGCTA: -0.105
ACCAGTGA: -0.171
CCCGCCGC: 0.46
CAATAAAA: -0.282
GGATTGCC: 0.058
CGCTTCTC: 0.277
CGTGCAGA: -0.0155
CGCGGCCA: 0.378
